Assay results from different studies.
Lines come from different studies, so protocols differ. Numbers after ± are the reported error.

COc1cc(CNC(=O)C[C@H](C)CCC=C(C)C)ccc1OCc1cn(-c2cccc([N+](=O)[O-])c2)nn1
growth percent (MCF7 breast cancer cells; SRB; 10 µM, 48 h): 74.5%

FC(F)(F)c1ccnc(-c2cc(C(F)(F)F)ccn2)c1.FC(F)(F)c1ccnc(-c2cc(C(F)(F)F)ccn2)c1.[Cl-].[Cl-].[Ru+2].c1csc(-c2ccc(-c3ccc(-c4ccc(-c5nc6c7cccnc7c7ncccc7c6[nH]5)s4)s3)s2)c1
phototherapeutic index (SK-MEL-28; normoxia, largest value, added: visible light): 12000

COc1cc(CNC(=O)C[C@H](C)CCC=C(C)C)ccc1OCc1cn(-c2ccc([N+](=O)[O-])cc2)nn1
growth percent (IGROV-1 ovarian cancer cells; SRB; 10 µM, 48 h): 78.8%

Cc1nn(C)c(O)c1-c1nc2cc(Cl)c(Cl)cc2[nH]c1=O
apoptotic cells (TF-1; annexin V; IC75, 24 h): ~30%

C[n+]1cn([C@@H]2O[C@H](COP(=O)(O)OP(=O)([O-])C(F)(F)P(=O)(O)O)[C@@H](O)[C@H]2O)c2nc(N)nc(O)c21
IC50 (cap-dependent translation, inhibitor; rabbit reticulocyte lysate; preincubated 60 min in lysate): 2.43 ± 0.07 µM

CCC12CCc3c(c4ccccc4n3C)CCN(CC3OC31)C2 (centres unmarked)
cytokine secretion (BV-2; ELISA, item: TNF-alpha, IL-6, IL-1beta, MCP-1; concentration not given, 1 h pretreatment, added: LPS): decreased

Cc1c(C)c(C)[c-](C)c1C.O=C1c2cccc[n+]2[Ir]([Cl])[N]1CCCCCCCCCC[P+](c1ccccc1)(c1ccccc1)c1ccccc1.[Br-]
viability fold enhancement (SH-SY5Y; SRB; 5 µM, 3 h, added: aldehyde Ia 20 µM, 24 h; relative to: aldehyde Ia alone): 2.1 fold

CC(=O)N[C@@H](CC(N)=O)C(=O)NCC(=O)N[C@@H](C)C(=O)N[C@@H](C)C(N)=O
rate constant k1 (Asn-Gly peptide isomerisation to succinimide; 1H NMR time course; pH 7.4, 46 °C): 0.0498 h⁻¹

COc1cc(CNC(=O)C[C@H](C)CCC=C(C)C)ccc1OCc1cn(-c2ccccc2[N+](=O)[O-])nn1
growth (786-0; SRB; 10 µM, 48 h): 83.5%

C=CC(=O)Oc1ccc(Cl)cc1C(=O)Nc1ccc([N+](=O)[O-])cc1Cl
cell growth (PC-3 (AR-negative); concentration not given, 3 days, dose-dependent): decreased

Cc1nn(-c2ccc(S(=O)(=O)N[C@@H](CO)CC(C)C)cc2)c2nn3nnnc3nc12
tail DNA (PC-3; DNA damage, alkaline comet; 2 µM, 24 h): 56.5 ± 6.65%

Cc1cccc(NCC(=O)Nc2nc3ccccc3s2)c1
inhibition (normal fibroblasts; 10 µM): 9.09%

O=C1c2c(O)cc(O)cc2-c2c(-c3ccc(O)cc3)oc3cc(O)cc1c23
number of proteins upregulated (MCF7 cells; label-free MS proteomics; 10 µM): 79

CCc1cccc(CC)c1NC(=O)c1nn(C)c2c1CCc1cnc(Nc3ccc(N4CCN(C)CC4)cc3OC)nc1-2
IC50 ratio (HCT-116 I531M; cell proliferation; relative to: I531M over parental HCT-116): 10.2

CC(=O)OC[C@H]1O[C@@H](Sc2sc(C(=O)c3ccc(Br)cc3)c(N)c2-c2nc3ccccc3s2)[C@H](OC(C)=O)[C@@H](OC(C)=O)[C@H]1OC(C)=O
growth (UACC-62; SRB; 10 µM, 48 h; relative to: untreated): 60.4%

NC(=O)[C@@H](O)C[C@H]1CCc2sc3ncnc(O[C@H]4CC[C@H](N5CCOCC5)CC4)c3c21
TNF production (human white blood cells; concentration not given, 1 h pretreatment, added: LPS 1 µg/mL or CpG 0.5 µM): inhibited

COc1cc(CNC(=O)C[C@H](C)CCC=C(C)C)ccc1OCc1cn(-c2ccc(C#N)cc2)nn1
growth percent (MOLT-4 leukaemia cells; SRB; 10 µM, 48 h): 14.8%

C=CCc1ccc(O)c(-c2cc(CC=C)ccc2OCCCCCCCCCC[P+](c2ccccc2)(c2ccccc2)c2ccccc2)c1
mitochondrial membrane potential (UACC-62; TMRE flow cytometry; concentration not given, 24 h): decreased

COc1ccc(CC2COC(=O)C2Cc2ccc3c(c2)OCO3)cc1OC (mixture of isomers)
viability (A2780cis; MTT; concentration not given, 72 h): decreased

CC/C=C\C/C=C\C/C=C\C/C=C\C/C=C\C/C=C\CCC(=O)Nc1ccn(C2OC(CO)C(O)C2(F)F)c(=O)n1 (centres unmarked)
GI50 (SR; cell growth or viability, SRB): 0.0141 µM

CC(=C(c1ccc(O)cc1)c1ccc(Cl)cc1)c1ccc(Cl)cc1
GI50 (A549/ATCC; NCI five-dose screen; non-small-cell lung cancer): 0.78 µM

CN1CCN(c2ccc(Nc3ncc(Cl)c(Nc4ccccc4NS(=O)(=O)C4CC4)n3)cc2)CC1
γ-H2AX level (EGFR C797S mutant; immunofluorescence; concentration not given, 24 h): increased

COc1cc(CNC(=O)C[C@H](C)CCC=C(C)C)ccc1OCc1cn(-c2ccccc2F)nn1
growth (786-0; SRB; 10 µM, 48 h): 43.6%

COc1ccc([C@@H]2CC(=O)c3c(O)cc(O[C@@H]4O[C@H](CO[C@@H]5O[C@@H](C)[C@H](O)[C@@H](O)[C@H]5O)[C@@H](O[C@H]5O[C@H](CO)[C@@H](O)[C@H](O)[C@H]5O)[C@H](O)[C@H]4O)cc3O2)cc1O
cell count (MRC5; trypan blue exclusion; 50 µg/mL, 48 h): 13300 ± 450

COc1cc(CNC(=O)C[C@H](C)CCC=C(C)C)ccc1OCc1cn(-c2ccc(Cl)cc2Cl)nn1
growth percent (MCF7 breast cancer cells; SRB; 10 µM, 48 h): 67.5%

O=C1CCC(N2C(=O)c3ccc(N4CCC(C(=O)N5CCC(CCN6CCC(CNC(=O)c7cccc(-c8noc(C(F)(F)F)n8)c7)(c7nc(-c8ccccc8)cs7)CC6)CC5)CC4)cc3C2=O)C(=O)N1 (centres unmarked)
sub-G0 cells (DHL6; flow cytometry; 3 µM, 24 h): 80.6%

O=C1OCC2=C1C(c1cccc(Br)c1)C1=C(N2)C(=O)c2ccccc2C1=O (centres unmarked)
necrotic cells (SK-LU-1 cells; annexin V/PI; 0.16 µM, 24 h): 2.84%

CN(C)c1cc2ccccc2c(N)n1
α-SMA protein level (mouse primary hepatic stellate cells; immunofluorescence; 10 µM, added: TGF-β1 5 ng/mL for 24 h): decreased

CN(C)c1cccc2c(S(=O)(=O)NCCCCCC(=O)NO)cccc12
cells in S phase (PC-3; propidium iodide flow cytometry; 1.54 µM): 19.9%

C=C1C(=O)OC2C1CCC1(C)CC1CCC1(C)OC21 (centres unmarked)
colony number (TEX; methylcellulose colony; 15 µM, 11 d): 0.6 ± 0.9

Cc1ccc(-c2nc3ccc(C)cn3c2CN2CCN(c3ccc(F)cc3)CC2)cc1
EC50 (CRL8155; cell growth or viability; 48 h): > 50 µM

CO[C@@H]1[C@@H](O[C@@H]2O[C@H](C)[C@@H](O[C@H]3C[C@@](C)(O)[C@@H](OC(=O)/C=C/c4ccc(C(F)(F)F)cc4)[C@H](C)O3)[C@H](N(C)C)[C@H]2O)[C@@H](CC=O)C[C@@H](C)[C@@H](O[C@H]2CC[C@H](N(C)C)[C@@H](C)O2)/C=C/C=C/C[C@@H](C)OC(=O)C[C@H]1O
selectivity index (GES-1 and HGC-27; cell growth, CCK-8; 72 h; relative to: IC50 GES-1 over HGC-27): 2.44

C[n+]1cn(C2OC(COP(=O)(O)OP(=O)([O-])C(Cl)(Cl)P(=O)(O)OP(=O)(O)OCC3OC(n4cnc5c(=O)[nH]c(N)nc54)C(O)C3O)C(O)C2O)c2nc(N)nc(O)c21 (centres unmarked)
IC50 (cap-dependent translation, inhibitor; rabbit reticulocyte lysate; preincubated 60 min in lysate): 1.52 ± 0.1 µM

C#CCN(CC(=O)O[C@H]1[C@H](C)O[C@@H](O[C@H]2[C@H](N(C)C)[C@@H](O)[C@H](O[C@H]3[C@@H](CC=O)C[C@@H](C)[C@@H](O[C@H]4CC[C@H](N(C)C)[C@@H](C)O4)/C=C/C=C/C[C@@H](C)OC(=O)C[C@@H](O)[C@@H]3OC)O[C@@H]2C)C[C@@]1(C)O)C(=O)c1ccc(C(C)(C)C)cc1
selectivity index (GES-1 and HGC-27; cell growth, CCK-8; 72 h; relative to: IC50 GES-1 over HGC-27): 4.3

O=S(=O)(CC(F)(F)F)Nc1ccc(Oc2ncccc2-c2ccnc(N[C@H]3CCCNC3)n2)c2ccccc12
secretome transcript level (INS1 cells with Dox-inducible IRE1α; IRE1α-induced decrease, RNA-Seq; 20 µM, added: 5 ng/mL doxycycline): inhibited

O=Cc1c(O)ccc2ccccc12
log2 fold change (HUVEC; RNA sequencing, item: ZNF365; 75 µM, 24 h; relative to: DMSO): 4.15

Cc1ccc2nc(-c3ccccc3)c(CN3CCOCC3)n2c1
EC50 (CRL8155; cell growth or viability; 48 h): > 50 µM

CCC/C(=C\C1=C(OC)C(=O)c2ccccc2C1=O)C(=O)NOC
NADPH/total NADP ratio (Pa03C cells; concentration not given, 6 h): decreased

COc1cc2c(cc1C)NC(=O)C2=Cc1c(Cl)[nH]c2c1ccc1ccccc12
TGI (ovarian cancer subpanel of NCI-60; 48 h): 7.24 µM

O=C(c1ccc2ccccc2c1)c1cn(-c2ccccc2)nc1C1=Nn2c(Cc3nnc4n3N=C(c3nn(-c5ccccc5)cc3C(=O)c3ccc5ccccc5c3)CS4)nnc2SC1
mRNA level (MCF7 cells; RT-PCR, item: Bax; IC50, 48 h; relative to: untreated): 7.6 fold

Brc1ccc(Nc2nc(NN=Cc3c[nH]c4ccccc34)nc(-n3ccnc3)n2)cc1
LC3-II level (A549 and SK-BR-3; autophagy, Western blot; 3 µM, 20 h): increased

COc1cc(CNC(=O)C[C@H](C)CCC=C(C)C)ccc1O
growth percent (MCF7 breast cancer cells; SRB; 10 µM, 48 h): 97.2%

COc1cc(C(=O)c2[nH]c(N)nc2-c2cccs2)cc(OC)c1OC
migration rate (A549 cells; scratch wound healing; 200 nM): 1.1 ± 0.1 µm/h

O=[N+]([O-])[O-].[NH3+][Pt-2]1([NH3+])[O]C(C(F)(F)F)=CC(c2ccccc2)=[O+]1 (centres unmarked)
mean growth (NCI-60 panel; SRB; 10 µM, 48 h; relative to: untreated): 89.7%

Cc1c(C)n(-c2c(C(C)C)cccc2C(C)C)c(=[Se])n1-c1c(C(C)C)cccc1C(C)C.[Cl][Au]
resistance factor (LoVo MDR; MTT; relative to: LoVo MDR over LoVo): 1.9

Cc1cc(C)c2sc(NC(=O)C3CCN(S(=O)(=O)c4ccc(F)cc4)CC3)nc2c1
efferocytosis (Napepld knockout BMDM; flow cytometry; 10 µM, 6 h): no effect

COc1cc(CNC(=O)C[C@H](C)CCC=C(C)C)ccc1OCc1cn(-c2cccc(C(F)(F)F)c2)nn1
growth (786-0; SRB; 10 µM, 48 h): 93%

COc1ccc(/C=C/C2=[N+]3C(=C(CO)c4c(C)cc(/C=C/c5ccc(OC)cc5)n4[B-]3(C)C)C(C)=C2)cc1
phototoxicity index (RPE-1; resazurin; added: 645 nm light; relative to: dark over light IC50): 70 ± 45

CCN1CCN(Cc2ccc(C(=O)Nc3ccc(C)c(NCc4cnc5[nH]ccc5c4OC)c3)cc2C(F)(F)F)CC1
GI50 (SNU-1040, overexpressing mutant; cell proliferation; 48 h): 3.52 µM

COC(=O)C1=CO[C@@H](C)[C@@H]2Cn3ccc4c5ccccc5nc-4c3C[C@H]12
growth inhibition (HEK293; 200 µM): < 50%

Excerpt of the above:
Cc1cc(C)c2sc(NC(=O)C3CCN(S(=O)(=O)c4ccc(F)cc4)CC3)nc2c1
efferocytosis (Napepld knockout BMDM; flow cytometry; 10 µM, 6 h): no effect

COc1cc(CNC(=O)C[C@H](C)CCC=C(C)C)ccc1OCc1cn(-c2cccc(C(F)(F)F)c2)nn1
growth (786-0; SRB; 10 µM, 48 h): 93%

COc1ccc(/C=C/C2=[N+]3C(=C(CO)c4c(C)cc(/C=C/c5ccc(OC)cc5)n4[B-]3(C)C)C(C)=C2)cc1
phototoxicity index (RPE-1; resazurin; added: 645 nm light; relative to: dark over light IC50): 70 ± 45
